{"data": "Assay results pooled from the literature", "note": "Each line is one published result; not all experiments were run side by side. Values joined by “and” are separate records of one study, mostly repeats; a detail may differ. ± gives the spread as reported."}
{"Compound": "CS(C)(=O)=Nc1ccc(-c2ccc(-c3nc4cc(O[C@@H]5CO[C@H]6[C@@H]5OC[C@H]6O)[nH]c4cc3F)cc2)cc1", "target": "Na+/K+-ATPase", "assay": "enzyme activity", "setting": "10 µM", "measurement": "inhibition", "value": "1%"}
{"Compound": "COc1ccccc1-c1n[nH]c2nc(NC3CCN(C(=O)Cc4ccc(F)cc4F)CC3)ncc12", "target": "HSPE1 LINJ.26.0590", "assay": "bead competition pull-down", "test system": "Leishmania extract", "setting": "10 µM", "scale": "reference: vehicle", "measurement": "relative captured amount", "value": 0.79}
{"Compound": "CSCC[C@H](NC(=O)[C@@H](N)CSC1CC(=O)N(CCNC(=O)COc2ccc(/C=C/C3=[N+]4C(=Cc5ccc(-c6cccs6)n5[B-]4(F)F)C=C3)cc2)C1=O)C(=O)N[C@@H](CCC(=O)O)C(=O)N[C@@H](Cc1ccccc1)C(=O)N[C@H](C(=O)N[C@@H](C)C(=O)N[C@@H](CCCCN)C(=O)N[C@@H](CC(C)C)C(=O)N[C@@H](Cc1ccccc1)C(=O)N[C@@H](CCCCN)C(=O)N[C@@H](Cc1ccccc1)C(=O)N[C@@H](Cc1ccccc1)C(=O)N[C@@H](CCCCN)C(=O)N[C@@H](CC(=O)O)C(=O)N[C@@H](CC(C)C)C(=O)N[C@@H](CC(C)C)C(=O)NCC(=O)N[C@@H](CCCCN)C(=O)N[C@@H](Cc1ccccc1)C(=O)N[C@@H](CC(C)C)C(=O)NCC(=O)N[C@@H](CC(N)=O)C(=O)N[C@@H](CC(N)=O)C(=O)O)C(C)C (stereo partly drawn)", "target": "mouse alpha-synuclein preformed fibrils", "setting": "2 µM, 30 min, excitation 590 nm, together with: 10 µM fibrils", "measurement": "fluorescence emission increase", "value": "16 fold"}
{"Compound": "COc1ccc(NC(=O)c2ccc3[nH]c(-c4ccc(N(C)C)cc4)nc3c2)cn1", "target": "endogenous ERK-MYD88 complex", "assay": "proximity ligation", "test system": "HCT-116", "setting": "concentration not given, unit not given", "scale": "reference: DMSO", "measurement": "ERK-MYD88 interaction", "value": "0.623 and 0.61 and 0.175"}
{"Compound": "COc1ccccc1-c1n[nH]c2nc(N[C@H]3CC[C@H](NS(=O)(=O)CC(C)C)CC3)ncc12", "target": "Leishmania CKS1 LINJ.32.3940", "assay": "bead competition pull-down", "test system": "Leishmania donovani extract", "setting": "10 µM", "scale": "reference: vehicle", "measurement": "relative captured amount", "value": 0.39}
{"Compound": "CC(C)NCCCn1c(Sc2cc3c(cc2I)OCO3)nc2c(N)ncnc21", "target": "epichaperome", "assay": "PU-PET", "test system": "human, tumour", "measurement": "tumour residence half-time", "value": "24 to 100 h"}
{"Compound": "Nc1ncc(-c2cc(-c3cnn(CC(F)(F)F)c3)ncc2F)nc1C(=O)NC1CNCC(F)C1 (stereo not drawn)", "target": "KIT V559D T670I", "assay": "KINOMEscan", "setting": "1 µM", "measurement": "remaining binding", "value": "80%"}
{"Compound": "Cc1cc(C(=O)Nc2nc3cccc(C)c3n2[C@H]2CCCCN(C(=O)/C=C/CN(C)C)C2)ccn1", "target": "Trypanosoma brucei CLK1 C215A", "assay": "differential scanning fluorimetry", "measurement": "melting temperature", "value": "41.2 °C and 41.1 °C"}
{"Compound": "CC[C@H](C)[C@@H]1NC(=O)[C@H](Cc2ccc(O)cc2)NC(=O)[C@@H](N)CSSC[C@@H](C(=O)N2CCC[C@H]2C(=O)N2CCC[C@H]2C(=O)NCC(N)=O)NC(=O)[C@H](CC(N)=O)NC(=O)[C@H](CCC(N)=O)NC1=O", "target": "oxytocin receptor (titi monkey)", "assay": "membrane hyperpolarisation", "test system": "CHO cells", "setting": "together with: pertussis toxin 150 ng/mL pretreatment 24 h", "measurement": "IC50", "value": "0.48 nM"}
{"Compound": "Cc1ccc2c(c1)nc(NC(=O)c1cccc(C(F)(F)F)c1)n2[C@H]1CC[C@H](N)CC1", "target": "Trypanosoma brucei CLK1 C215A", "assay": "differential scanning fluorimetry", "measurement": "melting temperature", "value": "40.1 °C and 40.2 °C and 40.8 °C"}
{"Compound": "CC[C@H](C)[C@@H]1NC(=O)CNC(=O)[C@H](CC(=O)O)NC(=O)[C@H](CC(=O)O)NC(=O)[C@@H]2CSSC[C@@H]3NC(=O)[C@H](Cc4c[nH]cn4)NC(=O)[C@H](CCCNC(=N)N)NC(=O)[C@H](CCCNC(=N)N)NC(=O)[C@@H](NC(=O)[C@H](CO)NC(=O)[C@@H](N)Cc4c[nH]cn4)CSSC[C@H](NC(=O)[C@H](C)NC(=O)[C@H](Cc4c[nH]c5ccccc45)NC(=O)CNC(=O)[C@H](CSSC[C@@H](C(=O)N[C@@H](CCCCN)C(=O)N4CCC[C@H]4C(=O)N[C@@H](CC(C)C)C(=O)N[C@@H](CCCNC(=N)N)C(=O)N[C@H](C(=O)O)C(C)C)NC1=O)NC(=O)[C@H](CCCNC(=N)N)NC(=O)[C@H](CCCNC(=N)N)NC(=O)[C@H](CC(N)=O)NC(=O)[C@H](CCC(=O)O)NC(=O)[C@H](Cc1c[nH]cn1)NC3=O)C(=O)N[C@@H](Cc1ccc(O)cc1)C(=O)N2", "target": "hKv1.5 human", "setting": "concentration not given", "measurement": "ion current", "value": "no effect"}
{"Compound": "O=C(O)COc1c2c(c(OCC(=O)O)c3c1C1CC3c3cc4c(cc31)C1CC4c3ccccc31)C1CC2c2cc3c(cc21)C1CC3c2ccccc21", "target": "sphingomyelin", "assay": "1H NMR titration", "test system": "methanol-d4", "setting": "CH2-N(Me)3 signal", "measurement": "association constant", "value": "17 ± 3 M⁻¹"}
{"note": "For quick reference, copied from above:"}
{"Compound": "CSCC[C@H](NC(=O)[C@@H](N)CSC1CC(=O)N(CCNC(=O)COc2ccc(/C=C/C3=[N+]4C(=Cc5ccc(-c6cccs6)n5[B-]4(F)F)C=C3)cc2)C1=O)C(=O)N[C@@H](CCC(=O)O)C(=O)N[C@@H](Cc1ccccc1)C(=O)N[C@H](C(=O)N[C@@H](C)C(=O)N[C@@H](CCCCN)C(=O)N[C@@H](CC(C)C)C(=O)N[C@@H](Cc1ccccc1)C(=O)N[C@@H](CCCCN)C(=O)N[C@@H](Cc1ccccc1)C(=O)N[C@@H](Cc1ccccc1)C(=O)N[C@@H](CCCCN)C(=O)N[C@@H](CC(=O)O)C(=O)N[C@@H](CC(C)C)C(=O)N[C@@H](CC(C)C)C(=O)NCC(=O)N[C@@H](CCCCN)C(=O)N[C@@H](Cc1ccccc1)C(=O)N[C@@H](CC(C)C)C(=O)NCC(=O)N[C@@H](CC(N)=O)C(=O)N[C@@H](CC(N)=O)C(=O)O)C(C)C (stereo partly drawn)", "target": "mouse alpha-synuclein preformed fibrils", "setting": "2 µM, 30 min, excitation 590 nm, together with: 10 µM fibrils", "measurement": "fluorescence emission increase", "value": "16 fold"}
